# Measured values gathered from unrelated publications.
# Every numbered part comes from another study and shows a few of its results, in no order. Changes are numbered by the printed parent chain.

# Sample 1
# Target: RNA binding protein fox-1 homolog 2, RRM domain, GST-SBP tag (RBFOX2, Homo sapiens, UniProt O43251-10, residues 100-194)
# Method: RNA Bind-n-Seq
# Molecule type: RNA
# Medium: in vitro
# Concentration: 365 nM
# Setting: natural RNA segment, single round, ends assumed
# Reference: no-protein control
# Reading: higher = stronger binding
# Shared flanks, not repeated: GGGAGUUCUACAGUCCGACGAUC … UGGAAUUCUCGGGUGCCAA
# Target sequence (chain): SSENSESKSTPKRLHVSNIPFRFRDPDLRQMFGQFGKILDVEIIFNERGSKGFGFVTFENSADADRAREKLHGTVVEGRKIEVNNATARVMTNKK
Oligonucleotide,RBNS enrichment (R)
UCUUAGAAUUUUGAGGAAAAUCUGGGACUUGAGACCUGGAUUCUAACAGACCAACUGCAUGUGUGUCUGUAGGUCUCAGUUUCCACAUUCAUACAGUGAGGGUGUUAAGU,20.9
AAGGGUAUGCCCCUGGCCACUAGAGAUCCUUAGAAACAGGUCUCUGAAGGAAAGGAGAUGCCAGGAUGCUACUCCAUUCCUUCUCUGGGAAUUGCCAGUCCAACUUUUCC,0.385
GCUGUGCCAACCUGUUCUUAGAGUGUAGCUGUAAGGGCAGUGCCCAUGUGUACAUUCUGCCUAGAGUGUAGCCUAAAGGGCAGGGCCCACGUGUAUAGUAUCUGUAUAUA,0.197
AAACAUGACUCGUAUAUGUCUCAGGUCCCUGCAGGGCCAAGCACCUAGCCUCGCUCUUGGCAGGUACUCAGCGAAUGAAUGCUGUAUAUGUUGGGUGCAAAGUUCCCUAC,1.25
GCCAACUCCCAGAGUUGACCUGUGUCACACCAGAUAACCAACUGCACUGCUGAAGUUUUCACAAGUGGAGUGUUGAAGGUGAAUCAGUAGUCUUUGGAGUCUACAAGUGA,0.249

# Sample 2
# Target: CCNE2, cyclin fold, Cln2 fusion (human)
# Method: yeast growth competition, sequencing
# Medium: yeast
# Setting: strong parent motif
# Reference: not given
# Reading: higher = stronger binding
# Parent: BRCA2 docking peptide (human); PSIKRNLLNEFDR; partner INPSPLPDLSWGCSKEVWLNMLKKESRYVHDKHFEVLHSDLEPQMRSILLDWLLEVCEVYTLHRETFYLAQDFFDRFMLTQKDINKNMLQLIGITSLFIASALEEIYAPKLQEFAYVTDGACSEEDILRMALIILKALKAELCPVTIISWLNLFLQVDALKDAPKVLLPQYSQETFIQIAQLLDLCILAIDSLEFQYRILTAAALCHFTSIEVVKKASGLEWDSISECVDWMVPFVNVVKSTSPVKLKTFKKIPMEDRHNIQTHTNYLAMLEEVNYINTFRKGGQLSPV
Change,normalised enrichment score
R5S,0.429
P1R,1.95
S2F,0.809
N9I,2.07

# Sample 3
# Target: Interferon regulatory factor 3, full length, phosphomimetic (IRF3, Homo sapiens, UniProt Q14653, residues 1-427, S386D/S396D/S398D/S402D/T404D/S405D)
# Sequence of UniProt Q14653 (whole entry, unmodified, looked up): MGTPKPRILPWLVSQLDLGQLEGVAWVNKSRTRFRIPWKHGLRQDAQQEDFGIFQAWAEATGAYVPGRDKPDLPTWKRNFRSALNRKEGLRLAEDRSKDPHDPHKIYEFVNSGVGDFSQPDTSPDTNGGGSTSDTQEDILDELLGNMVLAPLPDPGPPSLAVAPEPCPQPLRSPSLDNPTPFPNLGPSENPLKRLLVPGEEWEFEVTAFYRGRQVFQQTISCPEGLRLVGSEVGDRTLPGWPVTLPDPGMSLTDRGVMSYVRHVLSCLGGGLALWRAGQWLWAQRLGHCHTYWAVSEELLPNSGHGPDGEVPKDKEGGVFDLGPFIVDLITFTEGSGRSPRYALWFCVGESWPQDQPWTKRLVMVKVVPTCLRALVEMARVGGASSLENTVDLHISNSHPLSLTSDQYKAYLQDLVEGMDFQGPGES
# Method: protein-binding microarray
# Molecule type: double-stranded DNA, one strand shown
# Medium: in vitro
# Concentration: 2540 nM top
# Setting: 60-bp whole probe
# With: salmon DNA 0.4 mg/ml
# Reference: random background probes
# Reading: higher = stronger binding
# Shared flanks, not repeated: GCCTAGCAC … GTCTTGATTCGCTTGACGCTGCTG
Oligonucleotide,fitted relative affinity [z-score]
TTAGATCTCAGTATCGACTAGTGCTAG,0.403
TCACCTTGCATGTTTTTGACTGTGCTA,0.341
TCACTCCTCTAGGTTCTCACTGTGCTA,0.0424
TTCCTTCTGCCTGTCCATTCGTGCTAG,0.761
ATCCCGCCTGCCCCACAGAAGTGCTAG,-0.25
GACGATCTCAGTTTAGAGACGTGCTAG,0.925
TCAGTACTTTCTATCTCACTGTGCTAG,2.64

# Mixed results
Molecule,target,test,system,setting,how to read,quantity,result
"PhoQ, residues 284 288 289 292 302 303 SSTLSG","PhoP, residues 12 14 15 18 19 TPWLV (Escherichia coli, UniProt P23836)","Sort-seq, measured: YFP reporter",E. coli,"PhoQ-PhoP variant library, with: 10 µM Mg2+","reference: high Mg2+ state, higher = stronger signaling",fold induction,11.6
